Experimental data pooled from the literature.
Each numbered part is a random draw from the data of one study; scales do not carry over between parts.
Chain of UniProt P23458 (whole entry, looked up): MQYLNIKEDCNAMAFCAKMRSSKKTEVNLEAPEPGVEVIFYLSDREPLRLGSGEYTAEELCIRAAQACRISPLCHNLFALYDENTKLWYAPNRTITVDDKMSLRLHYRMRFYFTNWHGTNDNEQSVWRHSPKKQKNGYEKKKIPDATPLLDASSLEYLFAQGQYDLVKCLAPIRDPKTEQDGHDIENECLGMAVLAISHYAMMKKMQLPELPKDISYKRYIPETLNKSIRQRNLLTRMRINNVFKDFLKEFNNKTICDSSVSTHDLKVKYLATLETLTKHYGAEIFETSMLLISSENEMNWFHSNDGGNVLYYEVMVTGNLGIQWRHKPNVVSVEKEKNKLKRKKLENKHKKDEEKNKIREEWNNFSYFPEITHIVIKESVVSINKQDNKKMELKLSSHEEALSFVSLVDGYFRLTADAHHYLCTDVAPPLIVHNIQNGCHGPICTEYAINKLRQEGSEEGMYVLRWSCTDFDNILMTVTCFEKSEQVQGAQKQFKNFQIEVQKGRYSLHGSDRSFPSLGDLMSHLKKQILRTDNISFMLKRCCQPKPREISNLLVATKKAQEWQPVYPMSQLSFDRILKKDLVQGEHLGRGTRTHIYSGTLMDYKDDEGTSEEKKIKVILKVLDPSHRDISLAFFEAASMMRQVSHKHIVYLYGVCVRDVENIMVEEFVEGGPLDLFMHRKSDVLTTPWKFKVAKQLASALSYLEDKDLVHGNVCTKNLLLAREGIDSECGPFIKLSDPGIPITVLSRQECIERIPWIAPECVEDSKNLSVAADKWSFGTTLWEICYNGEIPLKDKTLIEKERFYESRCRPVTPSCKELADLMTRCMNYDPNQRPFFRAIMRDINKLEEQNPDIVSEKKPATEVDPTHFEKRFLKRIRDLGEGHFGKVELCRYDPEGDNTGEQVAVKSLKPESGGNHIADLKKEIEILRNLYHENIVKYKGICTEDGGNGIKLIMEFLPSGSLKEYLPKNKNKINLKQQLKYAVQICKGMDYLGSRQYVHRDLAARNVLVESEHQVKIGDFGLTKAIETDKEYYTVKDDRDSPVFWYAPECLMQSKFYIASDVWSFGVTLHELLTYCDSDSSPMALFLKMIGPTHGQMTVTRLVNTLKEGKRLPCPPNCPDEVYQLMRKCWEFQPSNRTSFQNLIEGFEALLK
Chain of UniProt O00329 (whole entry, looked up): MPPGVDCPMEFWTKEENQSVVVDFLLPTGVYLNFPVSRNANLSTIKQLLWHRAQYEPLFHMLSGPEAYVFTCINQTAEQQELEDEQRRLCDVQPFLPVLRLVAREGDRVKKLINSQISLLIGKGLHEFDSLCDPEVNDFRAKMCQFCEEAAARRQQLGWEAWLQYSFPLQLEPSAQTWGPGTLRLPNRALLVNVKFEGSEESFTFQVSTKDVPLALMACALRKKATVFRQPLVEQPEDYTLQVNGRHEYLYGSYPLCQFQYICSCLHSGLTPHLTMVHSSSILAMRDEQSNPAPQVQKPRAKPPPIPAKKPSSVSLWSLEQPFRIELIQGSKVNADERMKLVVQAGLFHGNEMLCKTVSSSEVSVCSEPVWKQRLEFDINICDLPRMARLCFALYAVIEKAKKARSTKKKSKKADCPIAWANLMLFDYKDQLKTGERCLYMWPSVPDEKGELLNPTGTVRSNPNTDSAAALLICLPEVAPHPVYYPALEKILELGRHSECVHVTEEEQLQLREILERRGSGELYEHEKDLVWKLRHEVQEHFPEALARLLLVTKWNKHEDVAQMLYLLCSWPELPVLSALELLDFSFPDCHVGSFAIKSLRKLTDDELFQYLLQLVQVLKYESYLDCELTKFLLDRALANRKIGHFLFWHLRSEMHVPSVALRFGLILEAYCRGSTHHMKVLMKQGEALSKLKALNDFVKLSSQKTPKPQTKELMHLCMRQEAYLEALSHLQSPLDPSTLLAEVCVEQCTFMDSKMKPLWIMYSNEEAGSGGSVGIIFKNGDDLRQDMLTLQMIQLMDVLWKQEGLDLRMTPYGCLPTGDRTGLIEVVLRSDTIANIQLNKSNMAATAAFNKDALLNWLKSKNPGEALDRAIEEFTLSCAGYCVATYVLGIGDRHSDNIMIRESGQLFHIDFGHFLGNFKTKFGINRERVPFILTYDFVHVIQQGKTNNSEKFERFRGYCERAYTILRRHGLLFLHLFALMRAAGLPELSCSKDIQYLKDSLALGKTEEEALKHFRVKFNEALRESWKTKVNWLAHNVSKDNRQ
Chain of UniProt P31749 (whole entry, looked up): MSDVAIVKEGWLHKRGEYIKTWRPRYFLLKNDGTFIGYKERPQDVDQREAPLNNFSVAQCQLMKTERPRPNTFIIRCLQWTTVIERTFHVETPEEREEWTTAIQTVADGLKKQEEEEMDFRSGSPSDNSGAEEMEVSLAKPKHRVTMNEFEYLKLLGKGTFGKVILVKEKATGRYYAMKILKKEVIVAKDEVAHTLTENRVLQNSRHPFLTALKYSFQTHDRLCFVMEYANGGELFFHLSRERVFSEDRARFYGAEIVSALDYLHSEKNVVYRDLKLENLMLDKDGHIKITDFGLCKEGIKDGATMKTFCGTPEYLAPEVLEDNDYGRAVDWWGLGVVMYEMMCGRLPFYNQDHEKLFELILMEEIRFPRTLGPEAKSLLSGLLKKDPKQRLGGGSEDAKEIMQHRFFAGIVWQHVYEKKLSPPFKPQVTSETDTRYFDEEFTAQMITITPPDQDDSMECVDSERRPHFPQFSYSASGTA
Chain of UniProt P09769 (whole entry, looked up): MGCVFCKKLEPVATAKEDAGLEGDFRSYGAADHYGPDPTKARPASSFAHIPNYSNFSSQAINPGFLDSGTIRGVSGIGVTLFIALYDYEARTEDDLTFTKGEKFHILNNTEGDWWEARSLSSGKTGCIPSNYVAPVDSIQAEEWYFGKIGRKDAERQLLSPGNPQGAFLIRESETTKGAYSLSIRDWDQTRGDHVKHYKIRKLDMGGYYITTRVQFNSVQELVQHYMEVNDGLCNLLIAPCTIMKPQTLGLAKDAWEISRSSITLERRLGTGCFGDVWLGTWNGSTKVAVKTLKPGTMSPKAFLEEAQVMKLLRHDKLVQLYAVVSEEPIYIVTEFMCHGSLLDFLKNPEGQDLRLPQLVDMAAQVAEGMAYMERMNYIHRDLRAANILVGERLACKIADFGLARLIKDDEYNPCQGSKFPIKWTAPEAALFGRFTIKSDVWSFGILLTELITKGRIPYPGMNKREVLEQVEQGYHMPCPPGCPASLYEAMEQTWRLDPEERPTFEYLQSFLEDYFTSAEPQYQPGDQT

Series 1
SMILES: Cn1cc(Cl)c2c(Oc3c(F)cc(Nc4cc(Cl)nc(N)n4)cc3F)ccnc21
Technique: competition with immobilised ligand
Tested at: 0.1 µM
target | test | remaining binding
CAMKK2 (Homo sapiens, UniProt Q96RR4) | cell-free assay | 99%
MAP4K2 (Homo sapiens, UniProt Q12851) | cell-free assay | 81%
CIT (Homo sapiens, UniProt O14578) | cell-free assay | 100%
Tyrosine-protein kinase ABL1, phosphorylated (ABL1, Homo sapiens, UniProt P00519, E255K) | binding | 100%
CDK18 (Homo sapiens, UniProt Q07002) | cell-free assay | 100%
IRAK3 (Homo sapiens, UniProt Q9Y616) | cell-free assay | 97%
FLT3 (Homo sapiens, UniProt P36888, F691L/ITD) | cell-free assay | 61%
PIK3CD (Homo sapiens, UniProt O00329) | cell-free assay | 51%
Non-receptor tyrosine-protein kinase TYK2, JH2 (TYK2, Homo sapiens, UniProt P29597) | cell-free assay | 85%
CAMK2D (Homo sapiens, UniProt Q13557) | cell-free assay | 95%
DYRK1B (Homo sapiens, UniProt Q9Y463) | cell-free assay | 82%
CSNK1D (Homo sapiens, UniProt P48730) | cell-free assay | 100%
CAMK2B (Homo sapiens, UniProt Q13554) | cell-free assay | 100%
MYLK (Homo sapiens, UniProt Q15746) | cell-free assay | 95%
HIPK3 (Homo sapiens, UniProt Q9H422) | cell-free assay | 80%
PRKCQ (Homo sapiens, UniProt Q04759) | cell-free assay | 99%
DDR2 (Homo sapiens, UniProt Q16832) | cell-free assay | 66%
CASK (Homo sapiens, UniProt O14936) | cell-free assay | 100%
AKT1 (Homo sapiens, UniProt P31749) | cell-free assay | 75%
PRKCD (Homo sapiens, UniProt Q05655) | cell-free assay | 100%
GAK (Homo sapiens, UniProt O14976) | cell-free assay | 100%
MAPK1 (Homo sapiens, UniProt P28482) | cell-free assay | 100%
Ribosomal protein S6 kinase alpha-5, C-terminal kinase domain (RPS6KA5, Homo sapiens, UniProt O75582) | cell-free assay | 100%
Tyrosine-protein kinase JAK1, JH1 (JAK1, Homo sapiens, UniProt P23458) | cell-free assay | 89%
STK24 (Homo sapiens, UniProt Q9Y6E0) | cell-free assay | 100%

Series 2
Organism: Sarcocystis neurona
Observed: parasite growth
Tested at: 10 µM
Time: 96 h
Setting: secondary screen
SMILES | inhibition [%]
CN1CCN(CCCN2c3ccccc3Sc3ccc(C(F)(F)F)cc32)CC1 | -17.8
CCOC(=O)[C@H](CCc1ccccc1)N[C@H]1CCc2ccccc2N(CC(=O)O)C1=O | -11.5
O=c1cnn([C@@H]2O[C@H](CO)[C@@H](O)[C@H]2O)c(=O)[nH]1 | -16.8
CCc1ccc(CCOc2ccc(CC3SC(=O)NC3=O)cc2)nc1 (stereo not drawn) | 9.8
CC(=O)NCCCCCCNC(C)=O | -18.7
C=CC1=C(C(=O)O)N2C(=O)[C@@H](NC(=O)/C(=N\OCC(=O)O)c3csc(N)n3)[C@H]2SC1 | -7.6
CC1(C)S[C@@H]2[C@H](NC(=O)[C@H](N)c3ccccc3)C(=O)N2[C@H]1C(=O)O | -19.9
COc1cc2nc(N(C)CCCNC(=O)C3CCCO3)nc(N)c2cc1OC (stereo not drawn) | -31.2
NC(=O)c1cnccn1 | -3.8
CC[C@H]1OC(=O)[C@H](C)[C@@H](O[C@H]2C[C@@](C)(OC)[C@@H](O)[C@H](C)O2)[C@H](C)[C@@H](O[C@@H]2O[C@H](C)C[C@H](N(C)C)[C@H]2O)[C@](C)(OC)C[C@@H](C)C(=O)[C@H](C)[C@@H](O)[C@]1(C)O | -2.1
CC[C@H](C)C(=O)O[C@H]1C[C@H](O)C=C2C=C[C@H](C)[C@H](CC[C@@H](O)C[C@@H](O)CC(=O)O)[C@H]21 | -13.1

Series 3
Target: Mitogen-activated protein kinase kinase kinase kinase 5 (MAP4K5, Homo sapiens, UniProt Q9Y4K4)
Chain of UniProt Q9Y4K4 (whole entry, looked up): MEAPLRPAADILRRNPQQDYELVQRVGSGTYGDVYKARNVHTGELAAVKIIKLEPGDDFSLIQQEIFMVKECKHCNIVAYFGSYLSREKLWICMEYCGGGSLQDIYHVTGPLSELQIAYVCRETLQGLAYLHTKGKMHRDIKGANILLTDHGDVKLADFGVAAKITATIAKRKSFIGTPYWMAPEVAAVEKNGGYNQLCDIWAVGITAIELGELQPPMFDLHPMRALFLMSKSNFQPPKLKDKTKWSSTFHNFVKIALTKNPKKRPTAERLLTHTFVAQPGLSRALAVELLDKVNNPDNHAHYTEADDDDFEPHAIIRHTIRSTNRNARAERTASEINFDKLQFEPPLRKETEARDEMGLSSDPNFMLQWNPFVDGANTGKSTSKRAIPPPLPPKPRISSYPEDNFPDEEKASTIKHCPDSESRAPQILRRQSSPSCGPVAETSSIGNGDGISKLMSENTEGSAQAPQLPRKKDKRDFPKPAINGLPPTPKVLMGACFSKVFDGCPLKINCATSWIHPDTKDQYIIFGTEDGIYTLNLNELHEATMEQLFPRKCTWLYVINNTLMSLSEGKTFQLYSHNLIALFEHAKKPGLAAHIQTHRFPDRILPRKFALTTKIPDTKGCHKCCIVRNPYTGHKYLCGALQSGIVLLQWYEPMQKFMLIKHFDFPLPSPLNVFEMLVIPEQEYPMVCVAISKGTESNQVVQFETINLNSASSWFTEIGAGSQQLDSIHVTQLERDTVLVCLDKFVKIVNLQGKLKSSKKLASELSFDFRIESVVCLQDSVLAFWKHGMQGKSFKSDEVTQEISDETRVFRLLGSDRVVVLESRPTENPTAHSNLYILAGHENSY
Observed: enzyme activity
Action: inhibitor
Tested at: 0.5 µM
Relative to: control
SMILES | remaining activity [%]
CN(C)c1ccc(C=C2C(=O)Nc3ccccc32)cc1 | 84.5
COc1ccc(CNC(=O)Nc2ncc([N+](=O)[O-])s2)cc1 | 93.9
CO[C@H]1C[C@@H]2CC[C@@H](C)[C@@](O)(O2)C(=O)C(=O)N2CCCC[C@H]2C(=O)O[C@H]([C@H](C)C[C@@H]2CC[C@@H](O)[C@H](OC)C2)CC(=O)[C@H](C)/C=C(\C)[C@@H](O)[C@@H](OC)C(=O)[C@H](C)C[C@H](C)/C=C/C=C/C=C/1C | 110
Cc1ccc(Nc2nccc(N(C)c3ccc4c(C)n(C)nc4c3)n2)cc1S(N)(=O)=O | 30.3
O=S(=O)(c1cccc2cnccc12)N1CCCNCC1 | 36.3
Cc1nc(-c2ccccc2)c(-c2ccncc2)o1 | 96.2
COc1ccc(OC)c2c(=S)c3ccccc3[nH]c12 | 95.2
Cc1cccc(-c2[nH]c(C(C)(C)C)nc2-c2ccc3c(c2)OCO3)n1 | 99.2
COc1cc2nccc(Oc3ccc(NC(=S)NC(=O)c4ccccc4C)cc3)c2cc1OC | 11.1
O=c1c2ccccc2[nH]c(=S)n1CCN1CCC(=C(c2ccc(F)cc2)c2ccc(F)cc2)CC1 | 98.8
Cn1sc(=O)n(Cc2ccccc2)c1=O | 107
O=C(CCCc1ccc(-c2ccccc2F)cc1)Nc1ccc(O)cc1 | 94.1
Oc1ccc(-c2nc(-c3ccncc3)c(-c3ccc(F)cc3)[nH]2)cc1 | 96.6
CC(C)[C@H](CO)Nc1nc(Nc2cc(N)cc(Cl)c2)c2ncn(C(C)C)c2n1 | 82.5
COc1ccc(C(=O)Nc2sc3c(c2C(N)=O)CCCC3)cc1OC | 94.3
COc1cc2ncnc(Nc3ccc(Oc4ccccc4)cc3)c2cc1OC | 70.6

Series 4
SMILES: CN1CCN(C(=O)c2ccc(NC(=O)Nc3ccc(N(C)c4ccnc(Nc5ccc(CS(C)(=O)=O)cc5)n4)cc3)cc2)CC1
Tested at: 1 µM
target | test | remaining binding [%]
CDK8 (Homo sapiens, UniProt P49336) | binding, competition with immobilised ligand | 85
FGR (Homo sapiens, UniProt P09769) | cell-free assay, competition with immobilised ligand | 57
CAMK4 (Homo sapiens, UniProt Q16566) | binding | 100
PAK4 (Homo sapiens, UniProt O96013) | binding | 46
MAP2K6 (Homo sapiens, UniProt P52564) | binding | 82
Receptor-type tyrosine-protein kinase FLT3, autoinhibited (FLT3, Homo sapiens, UniProt P36888) | binding | 7.3
MAPK7 (Homo sapiens, UniProt Q13164) | binding | 100
CAMK1 (Homo sapiens, UniProt Q14012) | binding | 100
JAK1 (Homo sapiens, UniProt P23458) | binding | 13
IRAK1 (Homo sapiens, UniProt P51617) | binding | 58
PIK3CA (Homo sapiens, UniProt P42336, E542K) | binding | 98
EIF2AK1 (Homo sapiens, UniProt Q9BQI3) | binding | 100
ROS1 (Homo sapiens, UniProt P08922) | binding | 57
MAP4K4 (Homo sapiens, UniProt O95819) | binding, competition with immobilised ligand | 33

A few entries again (series 3):
SMILES | remaining activity [%]
Cc1ccc(Nc2nccc(N(C)c3ccc4c(C)n(C)nc4c3)n2)cc1S(N)(=O)=O | 30.3
O=S(=O)(c1cccc2cnccc12)N1CCCNCC1 | 36.3
Cc1nc(-c2ccccc2)c(-c2ccncc2)o1 | 96.2
COc1ccc(OC)c2c(=S)c3ccccc3[nH]c12 | 95.2
Cc1cccc(-c2[nH]c(C(C)(C)C)nc2-c2ccc3c(c2)OCO3)n1 | 99.2
COc1cc2nccc(Oc3ccc(NC(=S)NC(=O)c4ccccc4C)cc3)c2cc1OC | 11.1
O=c1c2ccccc2[nH]c(=S)n1CCN1CCC(=C(c2ccc(F)cc2)c2ccc(F)cc2)CC1 | 98.8
Cn1sc(=O)n(Cc2ccccc2)c1=O | 107
O=C(CCCc1ccc(-c2ccccc2F)cc1)Nc1ccc(O)cc1 | 94.1
